# Results collected from several papers.
# Each line is one published result; not all experiments were run side by side.
# Organism: Escherichia coli
Compound,test,test system,conditions,MIC
COC(C(N)=O)C(NC(=O)c1ccc(NC(=O)c2ccc(C#N)cc2)cc1)C(=O)Nc1ccc(C(=O)Nc2ccc(C(=O)Nc3ccc(C(=O)O)cc3)c(O)c2OC(C)C)cc1 (centres unmarked),,BW25113 WT,,0.16 µg/mL
CC1(C)C(NC(=O)C(=NOCC(=O)N2CC3CCCC3C2C(=O)O)c2csc(N)n2)C(=O)N1OS(=O)(=O)O (centres unmarked),agar dilution,"16-1, ESBL-producing",,1 µg/mL
COc1ccc2ccc(O)c(/C=N/[C@H]3CCCC[C@H]3/N=C/c3ccc(C)cc3O)c2c1,"microbial growth, broth dilution",,clinical isolate,> 40 µM
C/C(=C\c1ccc(O)cc1)C(=O)Nc1ccc(C(=O)N[C@@H](Cc2c[nH]nn2)C(=O)Nc2ccc(C(=O)Nc3ccc(C(=O)Nc4ccc(C(=O)O)c(O)c4)c(O)c3)cc2)cc1,broth microdilution,BW25113,,0.063 µg/mL
CCCCCCCC[N+](C)(C)CCCCCCCCOc1cc(OCCCCCCCC[N+](C)(C)CCCCCCCC)cc(OCCCCCCCC[N+](C)(C)CCCCCCCC)c1.[Br-].[Br-].[Br-],,MC4100,,1 µM
CCCCCCCC(=O)N[C@@H](CCN)C(=O)N[C@H](C(=O)N[C@@H](CCN)C(=O)N[C@H]1CCNC(=O)[C@H]([C@@H](C)O)NC(=O)[C@H](CCN)NC(=O)[C@H](CCN)NC(=O)[C@H](CC(C)C)NC(=O)[C@@H](Cc2ccccc2)NC(=O)[C@H](CCN)NC1=O)[C@@H](C)O,broth microdilution,ATCC 25922,,0.125 to 0.25 µg/mL
Cn1nnnc1NCc1nn(C)c2nc(N)[nH]c(=O)c2c1=O,"microbial growth, broth dilution",BW25113,18 h,> 100 µg/mL
CCC(CC)c1cc(CCN2CCCN(S(=O)(=O)c3ccc4ccccc4c3)CC2)nc(-c2ccccn2)n1,"microbial growth, broth dilution",ATCC25922,,> 64 µg/mL
CC[C@H]1OC(=O)[C@H](C)[C@@H](OC(=O)Cc2ccc(C(F)(F)F)cc2)[C@H](C)[C@@H](O[C@@H]2O[C@H](C)C[C@H](N(C)C)[C@H]2O)[C@](C)(OC)C[C@@H](C)C(=O)[C@H](C)[C@@H](O)[C@]1(C)O,microbial growth,ATCC25922,,> 32 µg/mL
COc1c(C)c(OS(=O)(=O)c2ccccc2)c(C)c(O)c1C(=O)/C=C/c1ccccc1,"microbial growth, broth dilution",ATCC25922,,5000 µg/mL
COc1c(NC(=O)c2ccc(NC(=O)c3ccc(NC(=O)[C@H](CC#N)NC(=O)c4ccc(NC(=O)/C(C)=C/c5ccc(O)cc5)cc4)cc3)c(OC)c2O)ccc(C(=O)O)c1O,"microbial growth, broth dilution",DSM1116,,0.063 µg/mL
CN[C@H](CC(C)C)C(=O)N[C@H]1C(=O)N[C@@H](CC(N)=O)C(=O)N[C@H]2C(=O)N[C@H]3C(=O)N[C@H](C(=O)N[C@H](C(=O)NCc4cn(CC(=O)N[C@H](C(=O)N[C@@H](CCN)C(=O)N[C@H]5CCNC(=O)[C@H]([C@@H](C)O)NC(=O)[C@H](CCN)NC(=O)[C@H](CCN)NC(=O)[C@H](CC(C)C)NC(=O)[C@@H](CC(C)C)NC(=O)[C@H](CCN)NC5=O)[C@@H](C)O)nn4)c4cc(O)cc(O)c4-c4cc3ccc4O)[C@H](O)c3ccc(c(Cl)c3)Oc3cc2cc(c3O[C@@H]2O[C@H](CO)[C@@H](O)[C@H](O)[C@H]2O[C@H]2C[C@](C)(N)[C@H](O)[C@H](C)O2)Oc2ccc(cc2Cl)[C@H]1O,broth microdilution,"ATCC 35218, cation-adjusted Mueller-Hinton broth","18 to 20 h, 37 °C, 0.002% polysorbate 80",16 µg/mL
CC[C@H]1OC(=O)[C@H](C)[C@@H](OC(=O)Cc2c(F)cc([N+](=O)[O-])cc2F)[C@H](C)[C@@H](O[C@@H]2O[C@H](C)C[C@H](N(C)C)[C@H]2O)[C@](C)(OC)C[C@@H](C)C(=O)[C@H](C)[C@@H](O)[C@]1(C)O,,DSM 30083,with: colistin sulfate at 0.1 x MIC,32 µM
N=C(N)NCCC[C@@H]1NC(=O)[C@H](CCCNC(=N)N)NC(=O)[C@@H](CCCNC(=N)N)NC(=O)[C@@H](CCCNC(=N)N)NC(=O)[C@@H](C(c2ccccc2)c2ccccc2)NC(=O)[C@H](Cc2c[nH]c3ccccc23)NC(=O)[C@@H](C(c2ccccc2)c2ccccc2)NC1=O,,ATCC 25922,,16 µg/mL
COc1c(NC(=O)c2ccc(NC(=O)c3ccc(NC(=O)[C@H](Cc4c[nH]nn4)NC(=O)c4ccc(NC(=O)/C(C)=C/c5ccc(O)cc5)cc4)cc3)cc2)ccc(C(=O)O)c1O,broth microdilution,BW25113,,0.031 µg/mL
CCCCCCCCCC[N+](C)(C)CCCCCCOc1cc(OCCCCCC[N+](C)(C)CCCCCCCCCC)cc(OCCCCCC[N+](C)(C)CCCCCCCCCC)c1.[Br-].[Br-].[Br-],,MC4100,,2 µM
COc1c(C)c(OS(=O)(=O)c2ccccc2)c(C)c2c1C(=O)CC(c1ccccc1)O2 (centres unmarked),"microbial growth, broth dilution",ATCC25922,,5000 µg/mL
COc1cc(C(=O)Nc2ccc(C(=O)O)c(O)c2OC)ccc1NC(=O)c1ccc(NC(=O)[C@H](Cc2c[nH]nn2)NC(=O)c2ccc(NC(=O)/C(C)=C/c3ccc(O)cc3)cc2)cc1,broth microdilution,ciprofloxacin-resistant,,0.5 µg/mL
C=CCO/N=C(\C(=O)N[C@@H]1C(=O)N(OS(=O)(=O)O)C1(C)C)c1nsc(N)n1,agar dilution,"16-1, ESBL-producing",,0.25 µg/mL
CC[C@H](C)[C@H](NC(=O)[C@@H](CCCNC(=N)N)NC(=O)[C@H](CCCNC(=N)N)NC(=O)[C@@H]1CCCN1C(=O)[C@@H]1CCCN1C(=O)[C@H](CCCCN)NC(=O)[C@@H]1CCCN1C(=O)[C@H](CCCNC(=N)N)NC(=O)[C@@H]1CCCN1C(=O)[C@H](CC(C)C)NC(=O)[C@H](Cc1ccc(O)cc1)NC(=O)[C@@H]1CCCN1C(=O)[C@@H]1CCCN1C(=O)[C@H](CCCCN)NC(=O)[C@H](CC(=O)O)NC(=O)[C@@H](N)C(C)C)C(=O)N[C@@H](Cc1ccc(O)cc1)C(=O)N[C@@H](CC(N)=O)C(=O)N[C@H](CCCNC(=N)N)C(N)=O,broth microdilution,MC4100,"18 h, 37 °C, 25% MHB2",8 µg/mL
C/C(=C\c1ccc(O)cc1)C(=O)Nc1ccc(C(=O)N[C@@H](Cc2c[nH]nn2)C(=O)Nc2ccc(C(=O)Nc3ccc(C(=O)Nc4ccc(C(=O)O)cc4)c(O)c3)cc2)cc1,broth microdilution,DSM 1116,,0.25 µg/mL
CN[C@H](CC(C)C)C(=O)N[C@H]1C(=O)N[C@@H](CC(N)=O)C(=O)N[C@H]2C(=O)N[C@H]3C(=O)N[C@H](C(=O)N[C@H](C(=O)N[C@@H](CCCNC(=N)N)C(N)=O)c4cc(O)cc(O)c4-c4cc3ccc4O)[C@H](O)c3ccc(c(Cl)c3)Oc3cc2cc(c3O[C@@H]2O[C@H](CO)[C@@H](O)[C@H](O)[C@H]2O[C@H]2C[C@](C)(NCc3ccc(OCc4cn(CC(=O)N[C@H](C(=O)N[C@@H](CCN)C(=O)N[C@H]5CCNC(=O)[C@H]([C@@H](C)O)NC(=O)[C@H](CCN)NC(=O)[C@H](CCN)NC(=O)[C@H](CC(C)C)NC(=O)[C@@H](CC(C)C)NC(=O)[C@H](CCN)NC5=O)[C@@H](C)O)nn4)c(OC)c3)[C@H](O)[C@H](C)O2)Oc2ccc(cc2Cl)[C@H]1O,broth microdilution,ATCC 25922,18 to 20 h,16 µg/mL
c1ccc(CN2CCOCCOCCN(CCCCCCCCN3CCOCCOCCN(CCCCCCCCN4CCOCCOCCN(Cc5ccccc5)CCOCCOCC4)CCOCCOCC3)CCOCCOCC2)cc1,,tetracycline-resistant (pBR322),,250 µM
COc1cc(C(=O)O)ccc1NC(=O)c1ccc(NC(=O)c2ccc(NC(=O)[C@H](Cc3c[nH]nn3)NC(=O)c3ccc(NC(=O)/C(C)=C/c4ccc(O)cc4)cc3)cc2)cc1,broth microdilution,BW25113,,0.063 µg/mL
CC(C(=O)O)c1n[nH]c2nc(N)[nH]c(=O)c2c1=O (centres unmarked),"microbial growth, broth dilution",BW25113,18 h,> 100 µg/mL
COc1nc(C(=O)Nc2ccc(C(=O)O)c(O)c2OC)ccc1NC(=O)c1ccc(NC(=O)[C@H](Cc2c[nH]nn2)NC(=O)c2ccc(NC(=O)/C(C)=C/c3ccc(O)cc3)cc2)cc1,broth microdilution,DSM 1116,,0.063 µg/mL
CC1(C)[C@H](NC(=O)/C(=N\OCCN)c2csc(N)n2)C(=O)N1OS(=O)(=O)O,agar dilution,"16-1, ESBL-producing",,4 µg/mL
C[C@H](CS)C(=O)Nc1cccc(-c2nn[nH]n2)c1,broth microdilution,DH5α pET28-lacUV5 control,200 µM,> 64 µg/mL
COc1ccc2ccc(O)c(/C=N/[C@H]3CCCC[C@H]3/N=C/c3c(C)cccc3O)c2c1,"microbial growth, broth dilution",,,> 40 µM
CC[C@H]1OC(=O)[C@H](C)C(=O)[C@H](C)[C@@H](O[C@@H]2O[C@H](C)C[C@H](N(C)C)[C@H]2O)[C@](C)(OC)C[C@@H](C)C(=O)[C@H](C)[C@H]2N(CCCCn3cnc(-c4cccnc4)c3)C(=O)O[C@]12C,,lpxC,,> 32 µg/mL
CCOc1c(NC(=O)c2ccc(NC(=O)c3ccc(NC(=O)[C@H](Cc4c[nH]nn4)NC(=O)c4ccc(NC(=O)/C(C)=C/c5ccc(O)cc5)cc4)cc3)c(OCC)c2O)ccc(C(=O)O)c1O,broth microdilution,ciprofloxacin-sensitive,,0.016 µg/mL
CC[C@H]1OC(=O)[C@H](C)[C@@H](OC(=O)Cc2ccc([N+](=O)[O-])cc2)[C@H](C)[C@@H](O[C@@H]2O[C@H](C)C[C@H](N(C)C)[C@H]2O)[C@](C)(OC)C[C@@H](C)C(=O)[C@H](C)[C@@H](O)[C@]1(C)O,microbial growth,ATCC25922,,> 32 µg/mL
CC[C@H](C)[C@H](N)C1=N[C@H](C(=O)N[C@@H](CC(C)C)C(=O)N[C@H](CCC(=O)O)C(=O)N[C@H](C(=O)N[C@H]2CCCCNC(=O)[C@H](CC(N)=O)NC(=O)[C@@H](CC(=O)O)NC(=O)[C@H](Cc3c[nH]cn3)NC(=O)[C@@H](Cc3ccccc3)NC(=O)[C@H]([C@@H](C)CC)NC(=O)[C@@H](CCCN)NC2=O)[C@@H](C)CC)CS1,,ATCC 25922,"18 h, 37 °C, 0.3 mM ZnSO4 LB",> 64 µg/mL
CN[C@H](CC(C)C)C(=O)N[C@H]1C(=O)N[C@@H](CC(N)=O)C(=O)N[C@H]2C(=O)N[C@H]3C(=O)N[C@H](C(=O)N[C@H](C(=O)NCC(N)=O)c4cc(O)cc(O)c4-c4cc3ccc4O)[C@H](O)c3ccc(c(Cl)c3)Oc3cc2cc(c3O[C@@H]2O[C@H](CO)[C@@H](O)[C@H](O)[C@H]2O[C@H]2C[C@](C)(NCc3ccc(OCc4cn(CC(=O)N[C@H](C(=O)N[C@@H](CCN)C(=O)N[C@H]5CCNC(=O)[C@H]([C@@H](C)O)NC(=O)[C@H](CCN)NC(=O)[C@H](CCN)NC(=O)[C@H](CC(C)C)NC(=O)[C@@H](CC(C)C)NC(=O)[C@H](CCN)NC5=O)[C@@H](C)O)nn4)c(OC)c3)[C@H](O)[C@H](C)O2)Oc2ccc(cc2Cl)[C@H]1O,broth microdilution,"ATCC 35218, cation-adjusted Mueller-Hinton broth","18 to 20 h, 37 °C, 0.002% polysorbate 80",8 µg/mL
COc1ccc2cc3[n+](cc2c1OC)CCc1cc2c(cc1-3)OCO2.[Cl][Fe-]([Cl])([Cl])[Cl],,,"24 h, 37 °C",800 µM

# Excerpt of the above:
Compound,test,test system,conditions,MIC
CCC(CC)c1cc(CCN2CCCN(S(=O)(=O)c3ccc4ccccc4c3)CC2)nc(-c2ccccn2)n1,"microbial growth, broth dilution",ATCC25922,,> 64 µg/mL
CC[C@H]1OC(=O)[C@H](C)[C@@H](OC(=O)Cc2ccc(C(F)(F)F)cc2)[C@H](C)[C@@H](O[C@@H]2O[C@H](C)C[C@H](N(C)C)[C@H]2O)[C@](C)(OC)C[C@@H](C)C(=O)[C@H](C)[C@@H](O)[C@]1(C)O,microbial growth,ATCC25922,,> 32 µg/mL
COc1c(C)c(OS(=O)(=O)c2ccccc2)c(C)c(O)c1C(=O)/C=C/c1ccccc1,"microbial growth, broth dilution",ATCC25922,,5000 µg/mL
